Assay results of several laboratories.
Protocols differ between the studies behind these lines. ± gives the spread as reported.

| SMILES | test | test system | setting | how to read | AUC(0-t) |
| --- | --- | --- | --- | --- | --- |
| C=CC(=O)N(C)CCOc1c(N)ncnc1-c1cc(F)cc(NC(=O)c2ccc(C3CC3)cc2F)c1C |  | human, whole blood | oral, 1.5 mg, single ascending dose |  | 0.32 ng·h/mL |
| NC[C@@]1(CC(=O)O)[C@@H]2CC[C@H]3C[C@@H]2[C@@H]1C3 |  | human, severe renal impairment, plasma | oral, 20 mg single dose, geometric mean |  | 6500 ng·h/mL |
| O=C(O)CCC(=O)O.[2H]C([2H])([2H])Oc1cc(C)c2[nH]ccc2c1CN1CC[C@@H](C2CC2)C[C@H]1c1ccc(C(=O)O)cc1 | LC-MS/MS, geometric mean | human, plasma | 400 mg, single dose, fasting |  | 135000 ng·h/mL |
| C=CCn1c(=O)c2cnc(Nc3ccc(N4CCN(C)CC4)cc3)nc2n1-c1cccc(C(C)(C)O)n1 |  | human | oral, 125 mg twice daily, cycle 1 day 17, added: durvalumab 1500 mg IV | geometric mean | 4.38 µM·h |
| NC1(C(=O)N[C@@H](CCO)c2ccc(Cl)cc2)CCN(c2nc[nH]c3nccc2-3)CC1 |  | human patients, plasma | dose not given, cohort 160/400, cycle 2, geometric mean |  | 2120 ng·h/mL |
| CN(CC#N)C(=O)C[C@H](Nc1nc2ccccc2[nH]1)c1cccc(C(F)(F)F)c1 |  | human | intravenous infusion, 4 mg/kg, 1 mg/mL formulation |  | 19900 ± 7800 ng·h/mL |
| Cn1cc(-c2cn3nccc3c(-c3cnn([C@]4(CC#N)C[C@@H](C#N)C4)c3)n2)cn1 |  | healthy humans fasted, plasma | 3 mg single dose, geometric mean |  | 40 ng·h/mL |
| CO[C@H]1C[C@@H]2CC[C@@H](C)[C@@](O)(O2)C(=O)C(=O)N2CCCC[C@H]2C(=O)O[C@H]([C@H](C)C[C@@H]2CC[C@@H](OC(=O)NCCOCCOCCOCCOCCOCCOCCOCCOCCC(=O)N3CCc4cc(Cn5nc(-c6ccc7oc(N)nc7c6)c6c(N)ncnc65)ccc4C3)[C@H](OC)C2)C[C@@H](O)[C@H](C)/C=C(\C)[C@@H](O)[C@@H](OC)C(=O)[C@H](C)C[C@H](C)/C=C/C=C/C=C/1C |  | human, plasma | intravenous, 8 mg, cycle 1 day 1, arithmetic mean |  | 392 ng·h/mL |
| Cc1cc(C)c(CNC(=O)c2cc(Cl)c3c(c2C)O[C@@](C)([C@H]2CC[C@H](N(C)C)CC2)O3)c(=O)[nH]1 | geometric LS mean | healthy male humans, plasma | oral, dose not given, added: fluconazole |  | 917 ng·h/mL |
| C[C@H]1CN(C(=O)CC#N)[C@]12CCN(c1ncnc3[nH]ccc13)C2 |  | healthy human, plasma | oral, 3 mg single, mean |  | 59.6 ng·h/mL |
| C#C[C@]1(CO)O[C@@H](n2cnc3c(N)nc(F)nc32)C[C@@H]1O |  | human, plasma | oral, 100 mg, single dose, geometric mean |  | 10.1 µM·h |
| Cl.[2H]C([2H])([2H])CC(=O)c1cnc(NC(=O)C2CC2)cc1Nc1cccc(-c2ncn(C([2H])([2H])[2H])n2)c1OC | geometric mean | human | oral, 5 mg single dose, fasted, liquid |  | 326 ng·h/mL |

Some of these lines once more:
| SMILES | test | test system | setting | how to read | AUC(0-t) |
| --- | --- | --- | --- | --- | --- |
| C#C[C@]1(CO)O[C@@H](n2cnc3c(N)nc(F)nc32)C[C@@H]1O |  | human, plasma | oral, 100 mg, single dose, geometric mean |  | 10.1 µM·h |
